Experimental data of several laboratories.
Each line is one published result; not all experiments were run side by side. “And” joins repeats or separate records; there may be more than shown. ± gives the spread as reported.

CCN(CC)CCOc1ccc(-c2nnn(Cc3ccc(OC)cc3)c2N)cc1 — pulse pressure increase (beagle dog; oral, at least 40 mg/kg): ≤ 18%
CSCC[C@H](NC(=O)CNC(=O)[C@H](CCCCN)NC(=O)[C@H](CC(C)C)NC(=O)[C@@H]1CCCN1C(=O)[C@H](CO)NC(=O)[C@H](Cc1c[nH]cn1)NC(=O)[C@H](Cc1c[nH]c2ccccc12)NC(=O)[C@H](CCCNC(=N)N)NC(=O)[C@H](CC(C)C)NC(=O)[C@H](CCCNC(=N)N)NC(=O)[C@H](Cc1c[nH]c2ccccc12)NC(=O)[C@H](CS)NC(=O)CCCCCNC(=O)CN1CCN(CC(=O)O)CCN(CC(=O)O)CCN(CC(=O)O)CC1)C(=O)O [copper-64 labelled] — tumour-to-blood ratio (BALB/c nude mouse, Huh-7 tumour, tumour and blood; intravenous, 1.85 MBq, 1 h, ex vivo biodistribution; reference: tumour over blood): 1.97
CCCCCCCCCCCCCC(=O)N[C@H](CCN)C(=O)N[C@@H]1C(=O)N[C@@H](CCN)C(=O)N[C@@H](CC(C)C)C(=O)N[C@@H](CCN)C(=O)N[C@H](Cc2ccccc2)C(=O)N[C@@H](CC(C)C)C(=O)N[C@@H](CCN)C(=O)N[C@H](CCN)C(=O)N[C@@H](C(C)C)C(=O)N[C@@H](CC(=O)O)C(=O)O[C@@H]1C — AUC(0-inf) (rat, plasma; intravenous, 5 mg/kg): 56700 ng·h/mL
CC[C@H](C)[C@H](NC(=O)[C@H](CCCCN)NC(=O)CNC(=O)[C@H](CC(C)C)NC(=O)[C@H](Cc1ccccc1)NC(=O)[C@H](CCCCN)NC(=O)[C@H](CO)NC(=O)[C@H](Cc1ccccc1)NC(=O)[C@H](Cc1c[nH]c2ccccc12)NC(=O)[C@H](CCC(N)=O)NC(=O)[C@@H](NC(=O)[C@H](Cc1ccccc1)NC(=O)CCCCCNC(=O)CN1CCN(CC(=O)O)CCN(CC(=O)O)CCN(CC(=O)O)CC1)C(C)C)C(=O)N[C@@H](CCC(=O)O)C(=O)N1CCC[C@H]1C(=O)N[C@@H](CC(=O)O)C(=O)N[C@H](C(=O)N[C@@H](CO)C(=O)N[C@@H](CCC(N)=O)C(=O)N[C@H](C(=O)N[C@@H](CCC(N)=O)C(=O)N[C@@H](CC(=O)O)C(=O)N1CCC[C@H]1C(=O)N[C@@H](CC(N)=O)C(=O)N[C@@H](CC(=O)O)C(=O)N[C@@H](CCC(N)=O)C(=O)N[C@@H](Cc1ccc(O)cc1)C(=O)N[C@@H](CCC(=O)O)C(=O)N1CCC[C@H]1C(=O)N[C@@H](Cc1ccccc1)C(=O)O)C(C)C)C(C)C [copper-64 labelled] — SUVmean (dynamic PET; mouse, CT26 tumour, checkpoint inhibitor-treated, tumour; intravenous, 100 µCi/mouse, 1110 s): 4.42 SUV
CC(C)[C@H](NC(=O)[C@@H](NC(=O)[C@H](CCCNC(=N)N)NC(=O)[C@H](CCCNC(=N)N)NC(=O)[C@H](CCCNC(=N)N)NC(=O)[C@H](CCC(N)=O)NC(=O)[C@H](CCCNC(=N)N)NC(=O)[C@H](CCCNC(=N)N)NC(=O)[C@H](CCCCN)NC(=O)[C@H](CCCCN)NC(=O)[C@H](CCCNC(=N)N)NC(=O)CN)[C@@H](C)O)C(=O)N[C@H](C(=O)N[C@@H](CO)C(=O)N1CCC[C@H]1C(=O)O)[C@@H](C)O — organ weight (ICR mice, male, lung; intranasal, 5 mg/kg daily, 4 weeks): 0.348 ± 0.069 g
COC(=O)[C@H]1[C@@H](c2ccc(Cl)c(Cl)c2)C[C@@H]2CC[C@H]1N2CCCCCc1c2ccccc2cc2ccccc12 — pKa (fluorometric titration; 1 µM, 10% DMSO): 5.6
CCCCCC(=O)N[C@@H](CCCNC(=N)N)C(=O)N[C@@H](Cc1c[nH]c2ccccc12)C(=O)N[C@@H](CCCCN)C(=O)N[C@H](C(=O)N[C@@H](Cc1ccccc1)C(=O)N[C@@H](CCCCN)C(=O)N[C@@H](CCCCN)C(=O)N[C@H](C(=O)N[C@@H](CCC(=O)O)C(=O)N[C@@H](CCCCN)C(=O)N[C@H](C(=O)NCC(=O)N[C@@H](CCC(N)=O)C(=O)N[C@@H](CC(N)=O)C(=O)N[C@H](C(=O)N[C@@H](CCCNC(=N)N)C(=O)N[C@@H](CC(=O)O)C(=O)NCC(=O)N[C@H](C(=O)N[C@H](C(=O)N[C@@H](CCCCN)C(=O)N[C@@H](C)C(=O)NCC(=O)N1CCC[C@H]1C(=O)N[C@@H](C)C(=O)N[C@H](C(=O)N[C@@H](C)C(=O)N[C@H](C(=O)N[C@H](C(=O)NCC(=O)N[C@@H](CCC(N)=O)C(=O)N[C@@H](C)C(=O)N[C@@H](C)C(=O)N[C@H](C(=O)N[C@H](C(N)=O)[C@@H](C)CC)[C@@H](C)O)C(C)C)C(C)C)C(C)C)C(C)C)[C@@H](C)CC)[C@@H](C)CC)C(C)C)[C@@H](C)CC)[C@@H](C)CC — helical content (CD spectroscopy; 50% TFE in water; room temperature): 37.9%
CC(C)C[C@H](NC(=O)[C@H](Cc1ccc(O)cc1)NC(=O)[C@H](Cc1c[nH]cn1)NC(=O)[C@@H](NC(=O)[C@H](CC(C)C)NC(=O)[C@H](C)NC(=O)[C@H](C)NC(=O)[C@H](CCCCN)NC(=O)CNC(=O)[C@@H](NC(=O)[C@H](Cc1c[nH]cn1)NC(=O)[C@H](CCCCN)NC(=O)CNC(=O)[C@@H](NC(=O)[C@H](Cc1c[nH]cn1)NC(=O)[C@H](C)NC(=O)[C@H](C)NC(=O)[C@H](CCCCN)NC(=O)[C@H](CCCCN)NC(=O)[C@H](Cc1ccccc1)NC(=O)[C@H](Cc1ccccc1)NC(=O)[C@H](CO)NC(=O)CNC(=O)[C@H](Cc1c[nH]c2ccccc12)NC(=O)CN)C(C)C)C(C)C)[C@@H](C)O)C(N)=O — chronic toxic concentration (zebrafish embryos 4 hpf, E3 medium; 24 h): 1 µM
O=C1NC2(CC2)COc2ncc(F)cc2[C@H]2COCCN2c2ccn3ncc1c3n2 — alanine aminotransferase activity (Sprague-Dawley rat, female, serum; oral, 5 mg/kg/day, 4 weeks daily, end of recovery period): 22.6 ± 7.4 U/L
N#[11C]c1ccc(-c2csc(NN=C3CCCC3)n2)cc1 — uptake in testis (C57BL/6 mouse, male; intravenous, 3 MBq, 60 min): 0.9 ± 0.48 %ID/g
CCCC[C@H]1C(=O)N(C)[C@@H](CCCC)C(=O)N[C@@H](CCCCNC(=S)Nc2ccc(CN3CCN(CC(=O)O)CCN(CC(=O)O)CC3)cc2)C(=O)N[C@H](C(=O)NCC(N)=O)CSCC(=O)N[C@@H](Cc2ccc(O)cc2)C(=O)N(C)[C@@H](C)C(=O)N[C@@H](CC(N)=O)C(=O)N2CCC[C@H]2C(=O)N[C@@H](Cc2cnc[nH]2)C(=O)N[C@@H](CCC(=O)O)C(=O)N2C[C@H](O)C[C@H]2C(=O)N[C@@H](Cc2c[nH]c3ccccc23)C(=O)N[C@@H](CO)C(=O)N[C@@H](Cc2cn(CC(=O)O)c3ccccc23)C(=O)N1C [fluorine-18 labelled] — tumour uptake (region of interest, PET/CT; HT-29 MSS xenograft, huPBMC NSG mouse, female, tumour; intravenous, 60 min, together with: saline treated): 7.56 ± 1.64 %ID/mL
CC[C@H](C)[C@H](NC(=O)[C@H](C)NC(=O)[C@H](CCCCN)NC(=O)[C@H](CC(C)C)NC(=O)[C@@H](N)Cc1ccccc1)C(=O)N[C@@H](CCCCN)C(=O)N[C@@H](CCCCN)C(=O)N[C@@H](Cc1ccccc1)C(=O)NCC(=O)N[C@@H](CCCCN)C(=O)N[C@@H](CCC(=O)O)C(=O)N[C@@H](Cc1ccccc1)C(=O)N[C@@H](CCCCN)C(=O)N[C@@H](CCCCN)C(=O)N[C@H](C(=O)NCC(=O)N[C@@H](C)C(=O)N[C@@H](CCCCN)C(=O)N[C@@H](CC(C)C)C(=O)N[C@@H](CCCCN)C(=O)O)[C@@H](C)CC — hemolysis (human red blood cells; 0.25 mg/L, 1 h): 0.0204% and 0.633%
CCCCCCCCCCCCCCCC(=O)N[C@@H](CCC(=O)NCCOCCOCCC(=O)NCCOCCOCCC(=O)NCCCC[C@H](NC(=O)[C@H](CC(=O)O)NC(=O)[C@H](CC(C)C)NC(=O)[C@H](Cc1ccc(O)cc1)NC(=O)[C@H](CCCCN)NC(=O)[C@H](CO)NC(=O)[C@H](Cc1ccc(O)cc1)NC(=O)[C@H](CC(=O)O)NC(=O)[C@H](CO)NC(=O)[C@@H](NC(=O)[C@H](Cc1ccccc1)NC(=O)[C@@H](NC(=O)CNC(=O)[C@H](CCC(N)=O)NC(=O)[C@@H](CO)NC(=O)[C@@H](N)Cc1c[nH]cn1)[C@@H](C)O)[C@@H](C)O)C(=O)N[C@@H](CCCNC(=N)N)C(=O)N[C@@H](CCCNC(=N)N)C(=O)N[C@@H](C)C(=O)N[C@@H](CCC(N)=O)C(=O)N[C@@H](CC(=O)O)C(=O)N[C@@H](Cc1ccccc1)C(=O)N[C@H](C(=O)N[C@@H](CCC(N)=O)C(=O)N[C@@H](Cc1c[nH]c2ccccc12)C(=O)N[C@@H](CC(C)C)C(=O)N[C@@H](CC(C)C)C(=O)N[C@@H](CC(N)=O)C(=O)N[C@H](C(=O)NCC(=O)NCC(=O)N1CCC[C@H]1C(=O)N[C@@H](CO)C(=O)N[C@@H](CO)C(=O)NCC(=O)N[C@@H](C)C(=O)N1CCC[C@H]1C(=O)N1CCC[C@H]1C(=O)N1CCC[C@H]1C(=O)N[C@@H](CO)C(N)=O)[C@@H](C)O)C(C)C)C(=O)O — Cmax (rhesus monkey, plasma; subcutaneous, 60 µg/kg, single dose): 43.4 ng/mL
